Measurements collected from several papers.
Lines come from different studies, so protocols differ. ± marks the error that the study gave.
Urea transporter 1: Urea transporter 1 (Homo sapiens, UniProt Q13336)
Chain of UniProt Q13336 (whole entry, looked up): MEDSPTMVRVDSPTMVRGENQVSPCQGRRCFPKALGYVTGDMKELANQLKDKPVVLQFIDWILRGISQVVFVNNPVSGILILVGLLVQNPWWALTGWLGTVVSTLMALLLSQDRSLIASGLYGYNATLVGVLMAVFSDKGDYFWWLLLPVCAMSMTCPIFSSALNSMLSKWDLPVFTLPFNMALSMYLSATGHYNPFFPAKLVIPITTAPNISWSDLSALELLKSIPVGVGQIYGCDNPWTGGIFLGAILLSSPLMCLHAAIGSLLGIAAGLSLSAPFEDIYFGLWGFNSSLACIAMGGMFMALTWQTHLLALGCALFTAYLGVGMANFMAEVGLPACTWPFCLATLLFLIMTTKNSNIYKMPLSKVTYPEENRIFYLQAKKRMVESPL
PLEKHA6 PH domain: Pleckstrin homology domain-containing family A member 6, PH domain (PLEKHA6, Homo sapiens, UniProt Q9Y2H5)
Chain of UniProt Q9Y2H5 (whole entry, looked up): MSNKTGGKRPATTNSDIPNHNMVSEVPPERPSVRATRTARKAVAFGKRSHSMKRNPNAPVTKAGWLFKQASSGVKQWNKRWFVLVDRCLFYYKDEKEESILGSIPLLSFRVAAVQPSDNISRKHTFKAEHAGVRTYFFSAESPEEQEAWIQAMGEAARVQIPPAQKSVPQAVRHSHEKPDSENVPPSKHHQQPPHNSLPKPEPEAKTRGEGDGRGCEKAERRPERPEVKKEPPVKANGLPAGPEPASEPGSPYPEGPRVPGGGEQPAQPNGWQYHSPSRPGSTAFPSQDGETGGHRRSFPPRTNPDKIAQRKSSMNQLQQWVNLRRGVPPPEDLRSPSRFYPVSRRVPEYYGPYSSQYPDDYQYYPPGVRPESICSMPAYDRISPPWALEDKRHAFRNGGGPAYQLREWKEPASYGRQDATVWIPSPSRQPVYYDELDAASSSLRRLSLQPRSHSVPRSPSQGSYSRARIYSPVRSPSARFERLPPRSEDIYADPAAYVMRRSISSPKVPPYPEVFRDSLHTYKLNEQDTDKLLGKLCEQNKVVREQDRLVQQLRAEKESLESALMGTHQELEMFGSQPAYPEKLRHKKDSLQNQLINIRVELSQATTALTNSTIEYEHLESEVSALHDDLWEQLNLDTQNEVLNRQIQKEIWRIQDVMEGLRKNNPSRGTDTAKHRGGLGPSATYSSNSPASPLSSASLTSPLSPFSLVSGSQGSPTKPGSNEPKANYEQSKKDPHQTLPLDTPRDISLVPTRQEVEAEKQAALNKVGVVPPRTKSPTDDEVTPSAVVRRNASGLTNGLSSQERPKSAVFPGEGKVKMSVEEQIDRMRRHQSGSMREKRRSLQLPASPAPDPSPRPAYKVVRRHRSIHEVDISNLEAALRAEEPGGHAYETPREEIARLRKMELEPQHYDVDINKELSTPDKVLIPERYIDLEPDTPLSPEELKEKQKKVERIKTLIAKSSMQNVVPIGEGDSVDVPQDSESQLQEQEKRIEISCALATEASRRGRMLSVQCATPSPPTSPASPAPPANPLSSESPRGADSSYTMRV
CYP2E1: Cytochrome P450 2E1 (CYP2E1, Homo sapiens, UniProt P05181)
Chain of UniProt P05181 (whole entry, looked up): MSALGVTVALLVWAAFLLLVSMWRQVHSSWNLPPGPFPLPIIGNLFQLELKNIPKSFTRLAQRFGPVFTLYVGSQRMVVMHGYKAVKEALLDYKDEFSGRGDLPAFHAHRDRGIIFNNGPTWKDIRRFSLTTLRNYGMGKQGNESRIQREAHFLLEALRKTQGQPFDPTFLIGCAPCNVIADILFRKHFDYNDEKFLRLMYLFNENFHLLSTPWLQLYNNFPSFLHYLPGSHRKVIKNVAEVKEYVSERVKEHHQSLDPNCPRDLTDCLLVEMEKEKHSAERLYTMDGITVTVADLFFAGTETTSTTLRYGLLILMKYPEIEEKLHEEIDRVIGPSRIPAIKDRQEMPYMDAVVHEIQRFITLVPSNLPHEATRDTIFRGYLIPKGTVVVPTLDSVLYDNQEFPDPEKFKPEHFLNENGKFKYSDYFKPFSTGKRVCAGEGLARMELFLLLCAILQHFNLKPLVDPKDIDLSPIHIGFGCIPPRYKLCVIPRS
ELAVL1: ELAV-like protein 1 (ELAVL1, Homo sapiens, UniProt Q15717)
Chain of UniProt Q15717 (whole entry, looked up): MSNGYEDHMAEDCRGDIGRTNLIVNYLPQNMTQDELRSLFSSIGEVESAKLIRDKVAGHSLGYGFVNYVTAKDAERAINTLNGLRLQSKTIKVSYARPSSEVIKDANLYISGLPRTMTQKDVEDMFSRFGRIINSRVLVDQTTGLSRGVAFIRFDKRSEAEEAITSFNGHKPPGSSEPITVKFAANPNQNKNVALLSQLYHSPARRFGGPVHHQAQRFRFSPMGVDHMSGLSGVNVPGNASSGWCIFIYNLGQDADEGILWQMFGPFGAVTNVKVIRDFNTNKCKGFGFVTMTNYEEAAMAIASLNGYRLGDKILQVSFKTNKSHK
Chain of UniProt Q96NT5 (whole entry, unmodified, looked up): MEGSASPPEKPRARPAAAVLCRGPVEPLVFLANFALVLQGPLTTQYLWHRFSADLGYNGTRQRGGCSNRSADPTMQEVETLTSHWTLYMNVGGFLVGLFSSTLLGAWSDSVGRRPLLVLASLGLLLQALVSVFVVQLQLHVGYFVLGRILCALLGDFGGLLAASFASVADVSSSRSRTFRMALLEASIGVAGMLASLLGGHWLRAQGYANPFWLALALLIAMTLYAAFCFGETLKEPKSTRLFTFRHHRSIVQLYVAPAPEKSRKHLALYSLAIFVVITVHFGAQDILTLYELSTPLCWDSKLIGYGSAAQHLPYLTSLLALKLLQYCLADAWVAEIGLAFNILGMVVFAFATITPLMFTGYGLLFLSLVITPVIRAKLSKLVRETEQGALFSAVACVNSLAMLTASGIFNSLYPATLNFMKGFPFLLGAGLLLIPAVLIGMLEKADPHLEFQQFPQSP
Chain of UniProt P30542 (whole entry, looked up): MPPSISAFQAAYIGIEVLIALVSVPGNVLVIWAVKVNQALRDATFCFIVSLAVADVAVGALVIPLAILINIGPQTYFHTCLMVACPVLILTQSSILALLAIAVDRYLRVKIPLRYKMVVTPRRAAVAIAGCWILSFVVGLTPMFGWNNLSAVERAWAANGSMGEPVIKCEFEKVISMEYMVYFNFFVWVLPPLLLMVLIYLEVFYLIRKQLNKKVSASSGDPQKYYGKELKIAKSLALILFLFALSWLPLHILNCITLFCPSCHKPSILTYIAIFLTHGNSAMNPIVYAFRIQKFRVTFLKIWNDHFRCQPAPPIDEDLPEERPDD
Chain of UniProt P52790 (whole entry, unmodified, looked up): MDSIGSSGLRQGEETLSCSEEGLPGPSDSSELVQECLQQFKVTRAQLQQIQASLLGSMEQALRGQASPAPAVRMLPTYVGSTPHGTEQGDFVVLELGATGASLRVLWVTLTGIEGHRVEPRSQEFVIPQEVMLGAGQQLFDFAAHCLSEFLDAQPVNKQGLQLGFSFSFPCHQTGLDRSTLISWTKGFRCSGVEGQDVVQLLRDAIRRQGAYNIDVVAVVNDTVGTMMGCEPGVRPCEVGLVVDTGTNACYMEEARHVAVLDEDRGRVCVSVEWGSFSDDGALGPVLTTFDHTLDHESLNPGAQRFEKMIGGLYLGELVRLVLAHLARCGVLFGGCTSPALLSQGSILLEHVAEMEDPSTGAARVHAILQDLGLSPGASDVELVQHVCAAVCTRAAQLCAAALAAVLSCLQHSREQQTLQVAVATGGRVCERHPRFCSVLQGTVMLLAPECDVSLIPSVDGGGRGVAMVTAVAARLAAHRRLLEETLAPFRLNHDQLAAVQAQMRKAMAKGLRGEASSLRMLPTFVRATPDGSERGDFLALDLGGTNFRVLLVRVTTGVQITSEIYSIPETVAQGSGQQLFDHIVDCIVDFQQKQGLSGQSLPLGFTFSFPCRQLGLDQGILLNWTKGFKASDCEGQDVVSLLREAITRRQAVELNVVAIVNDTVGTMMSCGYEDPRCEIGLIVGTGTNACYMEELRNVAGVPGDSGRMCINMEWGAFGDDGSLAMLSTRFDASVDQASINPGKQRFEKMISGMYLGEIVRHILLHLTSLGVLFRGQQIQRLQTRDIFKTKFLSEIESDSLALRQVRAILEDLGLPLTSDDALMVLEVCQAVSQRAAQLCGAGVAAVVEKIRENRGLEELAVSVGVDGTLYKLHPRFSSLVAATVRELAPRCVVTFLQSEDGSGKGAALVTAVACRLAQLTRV

CC1CCCCC1CC(=O)Nc1nnc(S(N)(=O)=O)s1 (stereo not shown)  Ki (Enterococcus faecium γ-carbonic anhydrase; CO2 hydration, inhibitor, stopped-flow kinetics): 0.225 µM
Cc1ccc(-c2csc(NN=Cc3ccc(N4CC(C)CC(C)C4)cc3)n2)cc1 (stereo not shown)  Ki (alpha-glucosidase; enzyme activity, inhibitor, Lineweaver-Burk plot; together with: p-nitrophenyl-alpha-D-glucopyranoside): 18.7 ± 1.87 µM
NC(=O)NC(N)=O  Ki (Urea transporter 1; urea transport inhibition; together with: thiourea): 20000 µM
CC(C)(C(=O)Nc1nnc(S(N)(=O)=O)s1)C1CCCCC1  Ki (Enterococcus faecium γ-carbonic anhydrase; CO2 hydration, inhibitor, stopped-flow kinetics): 0.52 µM
NC(=O)OP(=O)(O)O  Ki (Urea transporter 1; urea transport): no effect
CC1CC(C)CN(c2ccc(C=NNc3nc(-c4ccc(Cl)c(Cl)c4)cs3)cc2)C1 (stereo not shown)  Ki (alpha-glucosidase; enzyme activity, inhibitor, Lineweaver-Burk plot; together with: p-nitrophenyl-alpha-D-glucopyranoside): 11.1 ± 0.98 µM
COc1ccc(C(=O)CC(SCc2ccc(Cl)cc2)C(=O)O)cc1 (stereo not shown)  Ki (PLEKHA6 PH domain; PLEKHA6 PI(4,5)P2 binding, fluorescence polarization; together with: BODIPY-PI(4,5)P2 tracer): 211 ± 18 µM
CCc1oc2ccccc2c1C(=O)c1cc(I)c(O)c(I)c1  Ki (CYP2E1; p-nitrophenol hydroxylation, inhibitor; baculosomes; 10 min, with additive 100 µM): 6 µM
CNC=O  Ki (Urea transporter 1; urea transport inhibition; together with: thiourea): 100000 µM
Cc1ccc(CC(=O)Nc2nnc(S(N)(=O)=O)s2)cc1  Ki (Enterococcus faecium γ-carbonic anhydrase; CO2 hydration, inhibitor, stopped-flow kinetics): 0.12 µM
CCOc1ccc(C(=O)CC(SCc2ccccc2Br)C(=O)O)cc1 (stereo not shown)  Ki (PLEKHA6 PH domain; PLEKHA6 PI(4,5)P2 binding, fluorescence polarization; together with: BODIPY-PI(4,5)P2 tracer): 61.4 ± 4.5 µM
COC(=O)c1cc2cc(NC(=O)c3ccccn3)ccc2s1  Ki (ELAVL1; Msi1 binding, inhibitor, fluorescence polarization): > 20 µM
CCc1oc2ccccc2c1C(=O)c1cc(Br)c(O)c(Br)c1  Ki (CYP2E1; p-nitrophenol hydroxylation, nonlinear fit; baculosomes; 10 min): 0.0034 µM
O=C(CN1CCCCC1)Nc1ccc2oc(-c3ccco3)nc2c1  Ki (Adenosine receptor A1 (ADORA1, Homo sapiens, UniProt P30542); ligand): 2.5 µM
Nc1ncnc2c1ncn2[C@@H]1O[C@H](COP(=O)(O)OP(=O)(O)O)[C@@H](O)[C@H]1O  Ki (klp-6 (Caenorhabditis elegans, UniProt G5EFQ4, F120K); microtubule gliding velocity, competitive inhibitor, single-molecule TIRF; pH 7.4, together with: Mg-ATP varied, porcine microtubules): 242 ± 4 µM
CC1CC(C)CN(c2ccc(C=NNc3nc(-c4ccc([N+](=O)[O-])cc4)cs3)cc2)C1 (stereo not shown)  Ki (alpha-glucosidase; enzyme activity, inhibitor, Lineweaver-Burk plot; together with: p-nitrophenyl-alpha-D-glucopyranoside): 4.59 ± 0.32 µM
CNC(N)=O  Ki (Urea transporter 1; urea transport inhibition; together with: thiourea): 100000 µM
CC1CCCC(CC(=O)Nc2nnc(S(N)(=O)=O)s2)C1 (stereo not shown)  Ki (Enterococcus faecium γ-carbonic anhydrase; CO2 hydration, inhibitor, stopped-flow kinetics): 0.242 µM
CCc1oc2ccccc2c1C(=O)c1ccc(O)cc1  Ki (CYP2E1; p-nitrophenol hydroxylation, inhibitor; baculosomes; 10 min, with additive 100 µM): 9.1 µM
OC[C@H]1OC(O)[C@H](O)[C@@H](O)[C@@H]1O (stereo partly shown)  Ki (Hexokinase-3 (HK3, Homo sapiens, UniProt P52790, E254A/R267A); substrate inhibition; mutant E254A/R267A, complete substrate inhibition model, together with: ATP 20 mM): 11000 ± 2000 µM
CCOc1ccc(C(=O)CC(SCc2ccc(F)cc2)C(=O)O)cc1 (stereo not shown)  Ki (PLEKHA6 PH domain; PLEKHA6 PI(4,5)P2 binding, fluorescence polarization; together with: BODIPY-PI(4,5)P2 tracer): 124 ± 11 µM
CC1CC(C)CN(c2ccc(C=NNc3nc(-c4ccc(Br)cc4)cs3)cc2)C1 (stereo not shown)  Ki (alpha-glucosidase; enzyme activity, inhibitor, Lineweaver-Burk plot; together with: p-nitrophenyl-alpha-D-glucopyranoside): 24.81 ± 0.15 µM
CCOc1cccc(C(=O)CC(SCc2ccc(Cl)cc2)C(=O)O)c1 (stereo not shown)  Ki (PLEKHA6 PH domain; PLEKHA6 PI(4,5)P2 binding, fluorescence polarization; together with: BODIPY-PI(4,5)P2 tracer): 44.9 ± 7.6 µM
CC1CCCC(C(=O)Nc2nnc(S(N)(=O)=O)s2)C1 (stereo not shown)  Ki (Enterococcus faecium γ-carbonic anhydrase; CO2 hydration, inhibitor, stopped-flow kinetics): 0.416 µM
COC(=O)c1cccnc1  Ki (Urea transporter 1; urea transport inhibition; together with: thiourea): 20000 µM
COc1ccccc1C(=O)CC(SCc1ccc(Cl)cc1)C(=O)O (stereo not shown)  Ki (PLEKHA6 PH domain; PLEKHA6 PI(4,5)P2 binding, fluorescence polarization; together with: BODIPY-PI(4,5)P2 tracer): 195 ± 2 µM
CC1CC(C)CN(c2ccc(C=NNc3nc(-c4ccc(C#N)cc4)cs3)cc2)C1 (stereo not shown)  Ki (alpha-glucosidase; enzyme activity, inhibitor, Lineweaver-Burk plot; together with: p-nitrophenyl-alpha-D-glucopyranoside): > 100 µM
CC(C)(C)n1nc(-c2ccc(Cl)cc2)c2c(N)ncnc21  Ki (Proto-oncogene tyrosine-protein kinase Src (SRC, Gallus gallus, UniProt P00523); enzyme activity, inhibitor): 0.05 µM
NS(=O)(=O)c1nnc(NC(=O)C2CC23CCCOC3)s1 (stereo not shown)  Ki (Enterococcus faecium γ-carbonic anhydrase; CO2 hydration, inhibitor, stopped-flow kinetics): 0.206 µM
COc1cccc(C(=O)CC(SCc2ccc(Cl)cc2)C(=O)O)c1 (stereo not shown)  Ki (PLEKHA6 PH domain; PLEKHA6 PI(4,5)P2 binding, fluorescence polarization; together with: BODIPY-PI(4,5)P2 tracer): 102 ± 11 µM
C[C@H]1O[C@H](O[C@H]2[C@H](O)[C@@H](O)[C@@H](O[C@H]3[C@H](O)[C@@H](O)C(O)O[C@@H]3CO)O[C@@H]2CO)[C@H](O)[C@@H](O)[C@@H]1N[C@H]1C=C(CO)[C@@H](O)[C@H](O)[C@H]1O (stereo partly shown)  Ki (alpha-glucosidase; enzyme activity, inhibitor, Lineweaver-Burk plot; together with: p-nitrophenyl-alpha-D-glucopyranoside): 23.5 ± 2.72 µM
CC1(C)CCCN(CC(=O)Nc2nnc(S(N)(=O)=O)s2)C1  Ki (Enterococcus faecium γ-carbonic anhydrase; CO2 hydration, inhibitor, stopped-flow kinetics): 0.0875 µM
CCCCN1CCC(COC(=O)c2ccc(N)c(OCF)c2)CC1  Ki (benzodiazepine site (rat); binding; rat brain): > 10 µM
NS(=O)(=O)c1nnc(NC(=O)COC2CCC(F)(F)CC2)s1  Ki (Enterococcus faecium γ-carbonic anhydrase; CO2 hydration, inhibitor, stopped-flow kinetics): 0.194 µM
CCOC(=O)c1cc2cc(NS(=O)(=O)c3ccc(C(C)(C)C)cc3)ccc2[nH]1  Ki (ELAVL1; Msi1 binding, inhibitor, fluorescence polarization): > 20 µM
CCCCNC(N)=O  Ki (Urea transporter 1; urea transport inhibition; together with: thiourea): 25000 µM
CCOc1ccc(C(=O)CC(SCc2cccc(Br)c2)C(=O)O)cc1 (stereo not shown)  Ki (PLEKHA6 PH domain; PLEKHA6 PI(4,5)P2 binding, fluorescence polarization; together with: BODIPY-PI(4,5)P2 tracer): 36 ± 2.7 µM
CCOC(=O)c1cc2cc(NC(=O)c3ccccn3)ccc2[nH]1  Ki (ELAVL1; Msi1 binding, inhibitor, fluorescence polarization): > 20 µM
CCOc1ccc(C(=O)CC(SCc2ccc(Cl)cc2)C(=O)O)cc1OCC (stereo not shown)  Ki (PLEKHA6 PH domain; PLEKHA6 PI(4,5)P2 binding, fluorescence polarization; together with: BODIPY-PI(4,5)P2 tracer): 86.5 ± 3.1 µM
NC(N)=S  Ki (Urea transporter 1; urea transport; inhibitor both sides): 12000 µM
Nc1nc2c(c(=O)[nH]1)N(C=O)[C@H](CNc1ccc(C(=O)N[C@@H](CCC(=O)O)C(=O)O)cc1)CN2  Ki (Proton-coupled folate transporter (Homo sapiens, UniProt Q96NT5, H247A); [3H]methotrexate uptake, inhibitor, Dixon plot; transfected cells wt-H247A; pH 5.5, together with: [3H]methotrexate 0.5 µM): 0.13 ± 0.02 µM
CCCCC(N)=O  Ki (Urea transporter 1; urea transport inhibition; together with: thiourea): 20000 µM
CCOC(=O)c1cc2cc(NC(=O)c3ccc(C(C)(C)C)cc3)ccc2[nH]1  Ki (ELAVL1; Msi1 binding, inhibitor, fluorescence polarization): > 20 µM

Repeated from above:
CCOc1ccc(C(=O)CC(SCc2ccccc2Br)C(=O)O)cc1 (stereo not shown)  Ki (PLEKHA6 PH domain; PLEKHA6 PI(4,5)P2 binding, fluorescence polarization; together with: BODIPY-PI(4,5)P2 tracer): 61.4 ± 4.5 µM
COC(=O)c1cc2cc(NC(=O)c3ccccn3)ccc2s1  Ki (ELAVL1; Msi1 binding, inhibitor, fluorescence polarization): > 20 µM
CCc1oc2ccccc2c1C(=O)c1cc(Br)c(O)c(Br)c1  Ki (CYP2E1; p-nitrophenol hydroxylation, nonlinear fit; baculosomes; 10 min): 0.0034 µM
O=C(CN1CCCCC1)Nc1ccc2oc(-c3ccco3)nc2c1  Ki (Adenosine receptor A1 (ADORA1, Homo sapiens, UniProt P30542); ligand): 2.5 µM
